# Measured values gathered from unrelated publications.
# Numbered parts are unrelated; each lists some results of a single study.
# Chain of UniProt P28223 (whole entry, looked up): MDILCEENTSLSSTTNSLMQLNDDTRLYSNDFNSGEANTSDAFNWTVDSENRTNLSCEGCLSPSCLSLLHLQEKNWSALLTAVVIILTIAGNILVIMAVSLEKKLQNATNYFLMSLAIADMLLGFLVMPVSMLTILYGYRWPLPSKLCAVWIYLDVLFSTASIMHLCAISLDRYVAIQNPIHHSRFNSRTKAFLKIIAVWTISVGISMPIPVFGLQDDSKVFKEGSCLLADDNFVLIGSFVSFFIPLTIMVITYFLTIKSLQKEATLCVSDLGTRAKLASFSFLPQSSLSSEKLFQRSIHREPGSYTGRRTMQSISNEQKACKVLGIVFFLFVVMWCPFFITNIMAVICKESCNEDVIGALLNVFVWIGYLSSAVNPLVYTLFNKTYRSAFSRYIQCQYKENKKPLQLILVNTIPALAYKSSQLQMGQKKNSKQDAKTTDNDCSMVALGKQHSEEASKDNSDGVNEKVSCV

# Sample 1
# Target: vesicular stomatitis virus glycoprotein
# Effect on: viral entry
# Method: VSVΔG-G pseudovirus
# Concentration: 10 µM
Structure (SMILES),inhibition
N#CC(C#N)=C/C=C(/Sc1ncc(C(F)(F)F)cc1Cl)c1ccc(Cl)cc1,35%
c1csc(-c2csc3nc(CN4CCOCC4)nc(Sc4nnc(C5CC5)o4)c23)c1,16%
CCCN(CCC)c1nc(N)ncc1[N+](=O)[O-],-55%
Cc1ccccc1NC(=O)N1c2ccccc2CC1c1noc(C2CCOCC2)n1 (stereo not shown),-11%
CCc1ccc2nc(C)c(CN3CCCC3)c(O)c2c1,15%
COc1ccc([N+](=O)[O-])c(S(=O)(=O)c2ccc(Cl)cc2)n1,20%
N#Cc1c(Cl)c(Cl)c(Cl)c(Cl)c1C#N,26%
CS(=O)(=O)c1ncc(Cl)c(C(=O)N2CCN(C(c3ccccc3)c3ccccc3)CC2)n1,29%

# Sample 2
# Target: Calcium/calmodulin-dependent protein kinase type II subunit alpha (CAMK2A, Homo sapiens, UniProt Q9UQM7)
# Chain of UniProt Q9UQM7 (whole entry, looked up): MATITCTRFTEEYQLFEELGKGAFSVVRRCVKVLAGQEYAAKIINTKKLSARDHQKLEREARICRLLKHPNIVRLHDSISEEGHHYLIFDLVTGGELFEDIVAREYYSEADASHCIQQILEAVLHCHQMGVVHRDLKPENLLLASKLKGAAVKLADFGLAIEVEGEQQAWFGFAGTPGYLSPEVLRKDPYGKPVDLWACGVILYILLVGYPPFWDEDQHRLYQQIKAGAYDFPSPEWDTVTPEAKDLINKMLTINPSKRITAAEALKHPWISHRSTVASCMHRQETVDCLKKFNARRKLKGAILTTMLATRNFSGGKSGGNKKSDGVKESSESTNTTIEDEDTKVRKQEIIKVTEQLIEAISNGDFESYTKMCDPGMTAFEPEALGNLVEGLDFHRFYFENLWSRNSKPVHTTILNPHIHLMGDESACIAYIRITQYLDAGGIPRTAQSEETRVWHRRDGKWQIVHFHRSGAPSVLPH
# Effect on: enzyme activity
# Action: inhibitor
# Concentration: 10 µM
SMILES,inhibition [%]
CC[N+](C)(CC)CCOC(=O)C(O)(c1ccccc1)c1ccccc1,-14
CC(C(=O)O)C(=O)O,1
NC(N)=NOCC[C@H](N)C(=O)O,8
CN1CCc2cc3c(cc2C1O)OCO3 (stereo not shown),27
CC1(C)[C@H]2O[C@H]2[C@H]2[C@](C)(O)[C@@H]3CC[C@@H]4[C@@H](O)[C@@]3(C[C@@H](O)[C@@]21O)C[C@@]4(C)O,-21

# Other studies, line by line
SMILES,tested on,assay,setting,measurement,value
NC(=O)C[S@@+]([O-])C(c1ccccc1)c1ccccc1,A-375,,"100 µM, 18 h",viability,85%
Cc1c(N2CCCC2)nc2ccc(Br)cc2c1C(=O)NC[C@H](CCC(=O)O)c1ccccc1Cl,"HTR2A (Homo sapiens, UniProt P28223)",cell-free assay,10 µM,inhibition,5.24%
Cc1ncsc1-c1ccc(CNC(=O)[C@@H]2C[C@@H](O)CN2C(=O)[C@@H](NC(=O)CCCCCNC(=O)Cc2ccccc2)C(C)(C)C)cc1,,exponential regression of PRP log k',pH 7.0,"logD (1,9-decadiene/water)",-2.96

# A few entries again (sample 2):
SMILES,inhibition [%]
NC(N)=NOCC[C@H](N)C(=O)O,8
CN1CCc2cc3c(cc2C1O)OCO3 (stereo not shown),27
